Published values from different studies.
± gives the spread as reported. In brackets after ≈: the same amount, converted by molar mass.

Molecule	target or system	test	system	conditions	how to read	quantity	result
COc1cc(/C=C/c2cc(O)cc(O)c2)ccc1O	–	LC-MS/MS	mouse, serum	oral, 150 mg/kg	–	Cmax	47.9 µM
AGGCATACAAGCACCTGCTGGAGCTTCGCCTGGAGAACGGGCCGATGGAGCACGACGCGGCGGTGGCAGCACTGAAGGAATGGTGGGCTCAGCACCCGGACAACGCATGAGAACGGGCGGCACGTTTCACGTGAAACGTGCCGCCCGCGGGTCATGTTTCACGTGAAACATGACCGTGAAGCAGAACACGGAGAGTGGTCTGTGCCTCAGGCCTCGCCGAGGCAGAGCAGGAACTCTTCACCGTCGCCGGTTTCGGCGTAGAAGCCGGTGGCTCCGTCGACCTTCCGGCACTCCGTCTCG (dsDNA)	Partitioning or sporulation protein full length assumed (Streptomyces coelicolor, UniProt Q9S6U1)	EMSA	double-stranded DNA, one strand shown	Hill fit	–	Kd	33.3 nM
O[C@H]1CCCN[C@@H]1CCCn1cnc2c(Cl)c(Cl)ccc21	–	–	human, plasma	oral, 500 mg, single dose, healthy volunteers	–	MRT	9.57 h
CC(=O)N[C@H](CCCCNC(=O)C(C)F)C(=O)N[C@@H](CS)C(=O)N[C@@H](CS)C(=O)N[C@@H](CCC(=O)O)C(=O)N[C@@H](Cc1c[nH]cn1)C(=O)N[C@H](Cc1ccccc1)C(=O)N[C@@H](CCCNC(=N)N)C(=O)N[C@@H](Cc1c[nH]c2ccccc12)C(=O)N[C@@H](CS)C(=O)N[C@@H](CCCNC(=N)N)C(=O)N1CCC[C@H]1C(=O)N[C@H](C(N)=O)C(C)C (stereo partly drawn) [fluorine-18 labelled]	–	–	C57BL/6 mice, male, B16-F10 tumour, bone	intravenous, 1 h	–	tissue uptake	0.69 ± 0.18 %ID/g
CCCCCCCC[N+](C)(C)C	–	in vitro-in vivo extrapolation	human	–	–	hepatic clearance	1.35 mL/h/g liver
CC[C@H](C)[C@H](NC(=O)[C@@H](N)CCCNC(=N)N)C(=O)N[C@H](C(=O)N1CCC[C@H]1C(=O)N[C@@H](C)C(N)=O)C(C)C	–	–	healthy volunteers, plasma	intravenous, 3.0 mg/kg daily, day 7, multiple ascending dose	–	mean residence time	3.6 ± 0.6 min
CNSRQTDREDELI	–	–	peptide, human polyclonal IgM RF AGER	concentration not given, 5 µg/mL mAb II-481 coated, together with: RF at 50% max binding concentration	–	inhibition	0%
TATCAACACTCTTTTCTTTTATGATATTTAATAGTTATTGCAAATTCATTGCTAACTTTCTTAACACGTTTTATAATAAACGGAGAGTTATCCGTTTGTCAATTTTAGAGAATTTTAAGTAGGTGTAATCATGCGAAAAGATGCAAAAGA (dsDNA)	gbaA 1-185 C55S (Staphylococcus aureus COL, UniProt Q5HCX3)	EMSA	double-stranded DNA, one strand shown	–	–	Kd	15.2 nM
RmS-17, glycosylated (Rhipicephalus microplus)	PLAU (Homo sapiens, UniProt P00749)	chromogenic substrate hydrolysis, inhibitor	–	1 µM	–	protease inhibition	< 20%
Cc1cccc(Nc2ccc3c(c2)C(c2ccccc2F)=NC(C)C(=O)N3)c1 (stereo not drawn)	–	shake flask	PBS	24 h, pH 7.4	–	solubility	3.52 µM (≈ 1.31 µg/mL)
[Met(O)35]Aβ40	–	electron microscopy	sodium phosphate buffer	10 µM, pH 7.4, 25 °C, agitation 200 rpm	relative to: wild-type peptide	delay of fibril formation	~24 h
melittin	–	CD titration	POPC 90% POPG 10% vesicles	pH 7.0, 40 °C	–	free energy of partitioning	-6.95 kcal/mol
NSRQTDR	–	–	peptide, human polyclonal IgM RF LOP	concentration not given, 5 µg/mL mAb II-481 coated, together with: RF at 50% max binding concentration	–	inhibition	0%
CCCCCCCCCC(=O)N[C@@H](Cc1c[nH]c2ccccc12)C(=O)N[C@H](CC(N)=O)C(=O)N[C@@H](CC(=O)O)C(=O)N[C@@H]1C(=O)NCC(=O)N[C@@H](CCCN)C(=O)N[C@@H](CC(=O)O)C(=O)N[C@H](C)C(=O)N[C@@H](CC(=O)O)C(=O)NCC(=O)N[C@H](CO)C(=O)N[C@@H]([C@H](C)CC(=O)O)C(=O)N[C@@H](CC(=O)c2ccccc2N)C(=O)O[C@@H]1C	–	–	human, plasma	7 mg/kg every 48 h, day 23	–	trough plasma concentration	33.4 µg/mL
eremomycin pyrrolidide	–	–	CBA mouse	intravenous, single bolus in 5% glucose	–	LD50	248 mg/kg
Clc1cc2c(cc1Cl)Oc1cc(Cl)c(Cl)cc1O2	–	–	zebrafish (Danio rerio) embryo, whole embryo, dry weight	waterborne, 1 ppb, 24 hpf	–	internal concentration	0.67 ppt
O=C(NCCCCCn1ccc2ccc(F)cc21)Oc1ccccc1	–	–	porcine liver S9 fraction	20 µM, 30 min, together with: BNPP 1 mM	–	inhibition of degradation	46%
CCCCCOc1ccc(-c2ccc(-c3ccc(C(=O)N[C@H]4C[C@@H](O)[C@@H](O)NC(=O)[C@@H]5[C@@H](O)[C@@H](C)CN5C(=O)[C@H]([C@@H](C)O)NC(=O)[C@H]([C@H](O)[C@@H](O)c5ccc(O)cc5)NC(=O)[C@@H]5C[C@@H](O)CN5C(=O)[C@H]([C@@H](C)O)NC4=O)cc3)cc2)cc1	–	–	patients aged sample B to <sample C years, plasma	intravenous, loading 200 then 100 mg daily	–	AUC(0-24) steady state median	86300 ng·h/mL

Some of these lines once more:
Molecule	target or system	test	system	conditions	how to read	quantity	result
AGGCATACAAGCACCTGCTGGAGCTTCGCCTGGAGAACGGGCCGATGGAGCACGACGCGGCGGTGGCAGCACTGAAGGAATGGTGGGCTCAGCACCCGGACAACGCATGAGAACGGGCGGCACGTTTCACGTGAAACGTGCCGCCCGCGGGTCATGTTTCACGTGAAACATGACCGTGAAGCAGAACACGGAGAGTGGTCTGTGCCTCAGGCCTCGCCGAGGCAGAGCAGGAACTCTTCACCGTCGCCGGTTTCGGCGTAGAAGCCGGTGGCTCCGTCGACCTTCCGGCACTCCGTCTCG (dsDNA)	Partitioning or sporulation protein full length assumed (Streptomyces coelicolor, UniProt Q9S6U1)	EMSA	double-stranded DNA, one strand shown	Hill fit	–	Kd	33.3 nM
CC(=O)N[C@H](CCCCNC(=O)C(C)F)C(=O)N[C@@H](CS)C(=O)N[C@@H](CS)C(=O)N[C@@H](CCC(=O)O)C(=O)N[C@@H](Cc1c[nH]cn1)C(=O)N[C@H](Cc1ccccc1)C(=O)N[C@@H](CCCNC(=N)N)C(=O)N[C@@H](Cc1c[nH]c2ccccc12)C(=O)N[C@@H](CS)C(=O)N[C@@H](CCCNC(=N)N)C(=O)N1CCC[C@H]1C(=O)N[C@H](C(N)=O)C(C)C (stereo partly drawn) [fluorine-18 labelled]	–	–	C57BL/6 mice, male, B16-F10 tumour, bone	intravenous, 1 h	–	tissue uptake	0.69 ± 0.18 %ID/g
